# Experimental data collected from several papers.
# A part holds a random share of what one study measured. Changes are numbered by the printed parent chain.

# Study 1 — technique: protein-binding microarray; form: double-stranded DNA, one strand shown; medium: in vitro; tested at: 2200 nM top; notes: 60-bp whole probe; with: salmon DNA 0.4 mg/ml; baseline: random background probes; reading: higher = stronger binding; constant ends, left off below: GCCTAGCAC … GTCTTGATTCGCTTGACGCTGCTG
# Target: Interferon regulatory factor 7, full length, phosphomimetic (IRF7, Homo sapiens, UniProt Q92985, residues 1-503, S471D/S472D/S475D/S476D/S477D/S483D/S484D/S487D)
# UniProt Q92985, sequence (whole entry, unmodified, looked up): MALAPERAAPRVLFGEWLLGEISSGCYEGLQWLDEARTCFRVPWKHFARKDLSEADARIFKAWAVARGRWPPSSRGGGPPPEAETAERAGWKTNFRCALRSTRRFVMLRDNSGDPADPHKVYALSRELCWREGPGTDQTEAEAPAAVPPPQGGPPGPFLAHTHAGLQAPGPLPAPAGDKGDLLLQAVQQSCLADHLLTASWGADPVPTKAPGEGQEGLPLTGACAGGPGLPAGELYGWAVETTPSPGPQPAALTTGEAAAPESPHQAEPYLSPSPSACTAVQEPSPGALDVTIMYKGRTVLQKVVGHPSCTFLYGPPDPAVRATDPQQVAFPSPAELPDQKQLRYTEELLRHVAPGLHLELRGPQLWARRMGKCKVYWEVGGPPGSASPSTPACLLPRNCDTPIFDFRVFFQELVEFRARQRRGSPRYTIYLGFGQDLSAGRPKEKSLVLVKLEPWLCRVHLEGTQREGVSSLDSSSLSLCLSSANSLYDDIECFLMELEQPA
Oligonucleotide,fitted relative affinity [z-score]
TCAAAAATCATTTTCTCACTGTGCTAG,0.624
TTAAGACTGGGTTTCGGTTAGTGCTAG,4.18
GACGGTATCGACTATCGGGTCGTGCTA,0.116
TCTGACCCCCTGCGCGGCAGGTGCTAG,-0.454
TTAGGACTGTGACTGGGTTAGTGCTAG,-0.219
GACGGTATCGGTATCCGGACGTGCTAG,0.626
GACGTTCTCGGTTTCGGGACGTGCTAG,4.48
GACGGTTTCGGGTTTCGCGACGTGCTA,8.82
TTAGGTATCGGTATCGGTTGGTGCTAG,1.36
GAAGGTATCGGTATCGGGACGTGCTAG,0.317
TTCGGACTGGACACTGGGTTAGTGCTA,-0.272
TAAAGCATTACTTTAGGTTCGTGCTAG,0.793
TTAGGTTTCCGACTGCTTTAGTGCTAG,1.26
TGAGGACTGGGTTTCGGTTAGTGCTAG,3.38
TTAGGACTGGGGTTTCCGTTAGTGCTA,0.156
TTAGGACTGGACTATCGGGTAGTGCTA,-0.585
GACGGTTACGACTTTCGGGACGTGCTA,2.99
GTCGGACTGCTTATCCTGACGTGCTAG,0.852

# Study 2 — target: CCNE1, cyclin fold, Cln2 fusion (human); technique: yeast growth competition, sequencing; medium: yeast; notes: strong parent motif; baseline: not given; reading: higher = stronger binding
# Starting sequence: CDKN1A docking peptide (human); SKACRRLFGPVDS; partner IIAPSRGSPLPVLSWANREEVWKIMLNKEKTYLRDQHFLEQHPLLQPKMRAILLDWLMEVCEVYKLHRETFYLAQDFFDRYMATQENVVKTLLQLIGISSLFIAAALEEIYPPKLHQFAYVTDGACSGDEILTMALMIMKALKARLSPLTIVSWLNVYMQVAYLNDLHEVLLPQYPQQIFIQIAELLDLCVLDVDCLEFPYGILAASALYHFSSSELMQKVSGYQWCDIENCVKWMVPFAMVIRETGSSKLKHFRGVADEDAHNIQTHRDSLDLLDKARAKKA
Variant,normalised enrichment score
V11L,5.19
K2E,4.1
L7Q,0.194
A3N,0.188
G9H,5.46
P10F,3.35
P10T,5.44
R5L,0.414
D12S,4.12
R6H,1.57
L7D,0.114
P10S,5.81
G9V,5.23
L7C,0.0542
R5V,0.387
V11K,4.66
A3K,0.672
C4N,1.4
C4H,1.03
D12N,4.98
R5A L7A,0.0899
L7G,0.114
F8V,0.397
A3Y,2.21
D12P,4.76

# Study 3 — technique: protein binding microarray; form: double-stranded DNA, one strand shown; medium: in vitro; tested at: not given; baseline: not given; reading: higher = stronger binding
# Target: Histone acetyltransferase KAT6A, winged helix 1, GST fusion (KAT6A, Homo sapiens, UniProt Q92794, residues 1-85)
# Notes: 8-mer, flanks averaged, mean of 2 arrays, mostly near background
# Residues (chain): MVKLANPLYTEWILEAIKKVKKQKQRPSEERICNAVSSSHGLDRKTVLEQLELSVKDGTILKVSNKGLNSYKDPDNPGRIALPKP
Oligonucleotide,E-score
CCGACAGG,0.0677
GATGAACA,-0.224
AACCTGAC,-0.112
CCCACCAG,-0.206
AGACGACT,-0.129
ATTAGTTG,-0.116
CCTGTATC,-0.124
GCCCCGAA,0.0527
CGCATTCA,0.102
GCGATTGA,0.0515
AATACCCG,0.244
CCTCAGTA,-0.0832
ATATTACG,0.149
CACTAGGA,-0.0417
CCGATCAC,0.0147
GCCTGCCA,-0.132

# Study 4 — technique: RNA Bind-n-Seq; form: RNA; medium: in vitro; tested at: 365 nM; baseline: no-protein control; reading: higher = stronger binding
# Target: RNA binding protein fox-1 homolog 2, RRM domain, GST-SBP tag (RBFOX2, Homo sapiens, UniProt O43251-10, residues 100-194)
# Notes: natural RNA segment, single round, ends assumed
# Constant ends, left off below: GGGAGUUCUACAGUCCGACGAUC … UGGAAUUCUCGGGUGCCAA
# Construct (chain): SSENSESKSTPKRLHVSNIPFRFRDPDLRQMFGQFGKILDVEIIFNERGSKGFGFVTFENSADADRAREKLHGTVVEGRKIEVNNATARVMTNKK
Oligonucleotide,RBNS enrichment (R)
CCGUAUCAGUACAGCUUUCACCUGGGUUGUCCGUUGUAGUGUCUGGGAAGCUUGAGGGUUCCCUUCUUAGGACCAGCGGGUGGUUUGUGAAAUGCUUAGCUGGUUAGCAU,1.94
UAAAGGUAGAGAUUAAACUGUAUAGACAGCAUAGGGAUGAAAGGAACCAAGCGUUUCUGUGGGAUUGAGACUGGUACGUGUACGAUGAACCUGCUGCUUUGUUUUCUGAG,1.12
GAUUUCUUGGUUAGGUUGCAUUAUAAUAACAAGAGUCAGAACAUUAAUUCGAAACAACUUGCAGUAUGCAUUUCUUCACACCAGUACAUUCUUAAGUGUACUUGUUUAUA,1.21
GCAAAAAGCCACCAAAUGAAGGGAUUCUAUCCAGCAAGAUCCUGUCCAAGAGUAGCCUGUGGAAUCUGAUCAGUUACUUUAAAAAAUGACUCCUUAUUUUUUAAAUGUUU,0.491
AGGGAAACCAAGCUUGGGCCUUGCAGUGGAAAUGGAUCCGAGGGCCCAGGGGACCCUGGUGGAUUUAGGGACUGUCCCCUCCCAUACUCCAAUAGAGGCCUAUCCUGACU,0.906
CUUCUUCACACCGGUACAUUCUCUGCAUCUGUUUAUAUGAAAUAACACAAGCUAAUCUGUACCUUUAUAUAUAUGUGUGUGUACAUAUAUACAUGUAUAAACUGUAUAGU,0.373
GGGAGCCUCUGUUCUGGUGGGGGCCACCUCCCUCAGAGGCUCUGCUAGCCACACUCCGUGGCCCACCCUUUGUUACCAGUUCUUCCUCCUUCCUCUUUUCCCCUGCCUUU,0.417
AGUCUGUGGCUGUUGGGCCUUUAGUUCCACAAUCCCCAUGGCUUAUUAUCCAGUCGGUCCCAUCUAUCCACCUGGCUCCACAGUGCUGGUGGAAGGAGGGUAUGAUGCAG,0.221

# For quick reference, copied from above (study 3):
Oligonucleotide,E-score
GCGATTGA,0.0515
ATATTACG,0.149
CCTCAGTA,-0.0832
CCGATCAC,0.0147
CCGACAGG,0.0677
CCCACCAG,-0.206
ATTAGTTG,-0.116
